Measurements gathered from unrelated publications.
Each numbered part is a random draw from the data of one study; scales do not carry over between parts. Changes are numbered by the printed parent chain.

Study 1 — technique: DHFR PCA, deep sequencing; sample: yeast; with: (+)-ABA 0.032 µM; baseline: wild-type fitted maximum; reading: higher = stronger binding; quantity: relative binding score
Target: ABI1, truncated, D143A, DHFR fusion (Arabidopsis thaliana)
Setting: methotrexate growth selection, single substitutions
Parent: PYL1, truncated, DHFR fusion (Arabidopsis thaliana); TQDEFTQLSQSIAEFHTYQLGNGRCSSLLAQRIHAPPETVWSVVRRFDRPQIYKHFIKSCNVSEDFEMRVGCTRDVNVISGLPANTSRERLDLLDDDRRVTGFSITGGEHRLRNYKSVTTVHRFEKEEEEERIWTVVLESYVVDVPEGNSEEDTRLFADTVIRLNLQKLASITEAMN
I105C: 2.58%
E128T: 34.9%
D153E: 16.5%
W41R: 3.03%
I172V: 45.1%
Q167W: 1.08%
K54N: -3.77%
S63L: 2.55%
L8W: 8.56%
E127L: 32.4%
Q19S: 24.9%
I52V: 43.9%
V100H: -1.73%
S87V: 59.2%

Study 2 — technique: RNA Bind-n-Seq; form: RNA; sample: in vitro; concentration: 200 nM; setting: whole 134-nt RNA, ends assumed; with: 150 mM KCl; baseline: input library; reading: higher = stronger binding; quantity: log2 enrichment
Target: Ras GTPase-activating protein-binding protein 1, full length (G3BP1, Homo sapiens, UniProt Q13283)
Chain of UniProt Q13283 (whole entry, looked up): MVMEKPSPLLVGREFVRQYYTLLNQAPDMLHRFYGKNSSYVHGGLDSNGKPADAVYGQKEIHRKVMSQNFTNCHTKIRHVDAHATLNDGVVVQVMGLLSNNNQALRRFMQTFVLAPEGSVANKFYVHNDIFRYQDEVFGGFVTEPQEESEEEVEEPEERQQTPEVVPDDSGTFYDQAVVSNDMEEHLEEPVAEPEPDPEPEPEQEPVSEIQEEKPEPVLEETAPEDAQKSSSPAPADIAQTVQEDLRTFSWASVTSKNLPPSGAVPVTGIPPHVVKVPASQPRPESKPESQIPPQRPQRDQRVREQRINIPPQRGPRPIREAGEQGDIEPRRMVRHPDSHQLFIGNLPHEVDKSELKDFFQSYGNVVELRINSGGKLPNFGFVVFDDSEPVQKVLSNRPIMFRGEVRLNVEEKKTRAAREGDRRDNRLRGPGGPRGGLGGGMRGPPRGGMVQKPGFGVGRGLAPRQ
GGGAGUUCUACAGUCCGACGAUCAAGUCCUGUGCUACACAUCGUAUGUACCGAAUCGGGAAAAGGGAAAAGGGAAAAGGGAAAGUAUUAUGUUACGCCGUUCGGAUCUGCACUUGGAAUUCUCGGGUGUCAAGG: -0.148
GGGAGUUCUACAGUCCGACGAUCCUCAAGUCCUGUGCUACACAUCGUAUGUACCGAAUCGGUUGGUUGGGGUUGGGGAAAGUAUUAUGUUACGCCGUUCGGAUCUGCACUUCCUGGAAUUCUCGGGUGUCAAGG: -0.0814
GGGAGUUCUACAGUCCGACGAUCUCAAGUCCUGUGCUACACAUCGUAUGUACCGAAUCGGGGAAAGGGAAAGGAAAGGAAAGUAUUAUGUUACGCCGUUCGGAUCUGCACUUCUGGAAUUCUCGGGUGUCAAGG: -0.712
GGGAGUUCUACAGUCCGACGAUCGCAGGAAGUAAAAACAAAUGGAAAUGCUUCGGAUAGUGGCAGGGGUGGGGGUUGCUAAGGAAAGGGUGGGAGGGGAGUGGGUAAAGAGUUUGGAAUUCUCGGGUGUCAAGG: 1.24
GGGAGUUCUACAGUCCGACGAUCGCAGGAAGUAAAAACAAAUGGAAAUGCUCCGGAUAGUGGCAGGGGUGGGGGUUGCUAAGGAAAGGGUGGGAUGGGAGUGGGUAAAGAGUUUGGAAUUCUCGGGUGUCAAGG: 1.37
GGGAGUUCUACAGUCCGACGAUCUCAAGUCCUGUGCUACACAUCGUAUGUACCGAAUCGGAGGUUUUUUUGGAAAGGAAAGUAUUAUGUUACGCCGUUCGGAUCUGCACUUCCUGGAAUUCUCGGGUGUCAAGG: -1.09
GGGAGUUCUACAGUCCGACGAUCCACAGACAACACGCACCCACACAGACACAGAGGGAAGGGGUUGGGAUGGGGACAGGGUUCACAGCAGGGCGGGGUAGGACCCCAGCCCCUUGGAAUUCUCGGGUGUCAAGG: 1.6
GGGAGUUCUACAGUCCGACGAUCUGGGAGGUGGCUUUUGUUUAUUUUUUUAGCUCAUUUCCAGGGGUGGGAAUUUUUUUUUAAUAUGUGUCAUGAAUAAAGUUGUUUUUGAAAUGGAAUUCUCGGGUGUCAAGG: 0.229
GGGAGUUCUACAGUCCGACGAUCCACAGACAACACGCACCCACACAGACACAGAUGGAAGGGGUUGGGAUGGGGACAGGGUGCACAGCAGGGCGGGGUAGGACCCCAGCCCCUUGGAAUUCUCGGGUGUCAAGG: 1.89
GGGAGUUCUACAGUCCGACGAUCAGUCCUGUGCUACACAUCGUAUGUACCGAAUCGGGUUUUUGGGAAAAAAAGGGAGGGAAAGUAUUAUGUUACGCCGUUCGGAUCUGCACUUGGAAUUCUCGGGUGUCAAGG: 0.0185

Study 3 — technique: protein binding microarray; form: double-stranded DNA, one strand shown; sample: in vitro; concentration: not given; baseline: not given; reading: higher = stronger binding; quantity: E-score
Target: Histone acetyltransferase KAT6A, winged helix 1, GST fusion (KAT6A, Homo sapiens, UniProt Q92794, residues 1-85)
Setting: 8-mer, flanks averaged, mean of 2 arrays, mostly near background
Target sequence (chain): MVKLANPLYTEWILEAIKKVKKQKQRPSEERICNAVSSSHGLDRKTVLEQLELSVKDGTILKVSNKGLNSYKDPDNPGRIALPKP
ATATCAGA: -0.0971
GACCTGCA: -0.211
GTCTACTA: -0.0654
CCACTCAA: -0.256
ACCGGTCG: 0.219
CGGGGAAC: 0.177
AGTACATA: -0.083
AGAGAAAT: -0.00451
ATGCATTG: -0.279
ACCGCGTC: 0.385
AACGTGGC: -0.137
AAGTACGG: 0.279
ATTGAGCG: 0.0225
AATTAGGT: -0.118
CCGTCAGA: 0.2
GTAACTCA: -0.123
CAGGCAGG: -0.28
CAGGTTGA: -0.0535
CAACCACC: -0.141
ATACGCAT: 0.0956
CGTTTACA: 0.0683
GAACGGCC: 0.236
TACAAGCA: -0.0734
CCAGCAAG: -0.196
GGCAACCC: 0.159

Study 4 — technique: universal PBM; form: double-stranded DNA, one strand shown; sample: in vitro; concentration: not given; reading: higher = stronger binding; quantity: E-score
Target: Sal-like protein 4, full length isoform B (SALL4, Homo sapiens, UniProt Q9UJQ4-2, residues 1-616)
Setting: 8-mer, flanks averaged, mean of replicates
Construct (chain): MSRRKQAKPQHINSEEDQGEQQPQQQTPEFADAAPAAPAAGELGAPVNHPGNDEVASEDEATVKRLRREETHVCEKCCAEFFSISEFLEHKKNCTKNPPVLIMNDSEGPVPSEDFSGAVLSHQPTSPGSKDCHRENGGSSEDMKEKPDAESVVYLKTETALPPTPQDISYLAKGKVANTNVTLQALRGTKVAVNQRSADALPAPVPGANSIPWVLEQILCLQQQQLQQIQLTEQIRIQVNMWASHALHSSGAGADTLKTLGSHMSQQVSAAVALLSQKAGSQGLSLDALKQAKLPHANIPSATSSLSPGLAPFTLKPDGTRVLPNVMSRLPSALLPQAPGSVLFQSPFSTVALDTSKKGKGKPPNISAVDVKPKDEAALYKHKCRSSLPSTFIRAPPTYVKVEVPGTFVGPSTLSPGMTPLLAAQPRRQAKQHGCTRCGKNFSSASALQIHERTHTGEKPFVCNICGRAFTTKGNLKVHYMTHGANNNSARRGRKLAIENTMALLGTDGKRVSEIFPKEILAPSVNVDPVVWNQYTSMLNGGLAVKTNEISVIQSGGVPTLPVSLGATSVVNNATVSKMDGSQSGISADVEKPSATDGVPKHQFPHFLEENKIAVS
CCTCCACG: -0.128
AATTTATG: 0.393
CCCTGAGA: -0.286
ACAGGTCA: -0.188
AGAGACTA: 0.0201
GCGACCCC: -0.243
AACATCGG: -0.111
AAGTAATA: 0.311
GGCATAAC: 0.15
ACGATTAT: 0.308
GTGAATTA: 0.277
ATAGGTAC: 0.164
AGGAACTA: -0.0704
ACAGCACA: 0.0291
GCCGTGAC: -0.0557
AAACTATC: 0.156
GAAATTGC: 0.103
CGACTTCC: -0.162
CATAGTAA: 0.296
GGATTGGA: -0.0435
TCTTCCAA: 0.146
CCCGAGGC: -0.344
CGCTCTAG: -0.359

Study 5 — target: CCNE1, cyclin fold, Cln2 fusion (human); technique: yeast growth competition, sequencing; sample: yeast; setting: weak parent motif; baseline: not given; reading: higher = stronger binding; quantity: normalised enrichment score
Parent: ORC1 docking peptide (human); PRARKRLELGNLG
P1D: 1
G10F: 0.716
L9F: 2.25
L12T: 0.0913
N11D: 0.128
G13Q: 0.097
R6D: 0.337
G13K: 0.952
L9V: 1.04
P1S: -0.0666
L12R: -0.325

Study 6 — target: CREB3L4, bZIP domain (human); technique: DHFR protein complementation; sample: yeast; baseline: wild-type JUN-FOS pair; reading: higher = stronger binding; quantity: binding fitness
Setting: single substitutions, most at no-binding floor
Parent: JUN, bZIP domain (human); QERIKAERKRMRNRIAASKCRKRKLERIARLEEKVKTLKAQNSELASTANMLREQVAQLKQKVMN; partner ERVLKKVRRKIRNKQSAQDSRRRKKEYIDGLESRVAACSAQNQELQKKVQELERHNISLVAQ
S47I: -1.27 natural log
M51A: -1.24 natural log
K34Q: -1.52 natural log
A49C: -1.26 natural log
A46W: -1.39 natural log
E33F: -1.53 natural log
L38T: -1.52 natural log
K36C: -1.47 natural log
S47R: -1.36 natural log
T37W: -1.44 natural log
E33S: -1.44 natural log
A40V: -1.42 natural log
K39S: -1.37 natural log
K39Q: -1.53 natural log
R53H: -1.34 natural log
Q55H: -1.49 natural log

Study 7 — technique: protein-binding microarray; form: double-stranded DNA, one strand shown; sample: in vitro; concentration: 250 nM; setting: 60-bp whole probe; with: salmon DNA 0.4 mg/ml; baseline: random background probes; reading: higher = stronger binding; quantity: log fluorescence; shared flanks, not repeated: GCCTAGCAC … GTCTTGATTCGCTTGACGCTGCTG
Target: Interferon regulatory factor 7, full length, phosphomimetic (IRF7, Homo sapiens, UniProt Q92985, residues 1-503, S101K/S471D/S472D/S475D/S476D/S477D/S483D/S484D/S487D)
Chain of UniProt Q92985 (whole entry, unmodified, looked up): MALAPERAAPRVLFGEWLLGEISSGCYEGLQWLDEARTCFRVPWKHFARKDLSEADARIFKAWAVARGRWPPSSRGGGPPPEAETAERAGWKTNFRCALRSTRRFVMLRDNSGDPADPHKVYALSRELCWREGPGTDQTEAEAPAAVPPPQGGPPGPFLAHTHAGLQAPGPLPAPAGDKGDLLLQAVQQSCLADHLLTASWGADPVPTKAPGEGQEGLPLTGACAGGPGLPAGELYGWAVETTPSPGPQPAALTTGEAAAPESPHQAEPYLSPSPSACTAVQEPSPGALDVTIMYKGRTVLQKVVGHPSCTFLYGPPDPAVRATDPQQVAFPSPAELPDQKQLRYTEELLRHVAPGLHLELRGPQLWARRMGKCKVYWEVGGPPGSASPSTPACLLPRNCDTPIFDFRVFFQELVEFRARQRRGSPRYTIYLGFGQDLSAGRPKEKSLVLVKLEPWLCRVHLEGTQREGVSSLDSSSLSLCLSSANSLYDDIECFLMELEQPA
TTAGGACTCGGGTTTCGGTTAGTGCTA: 8.1 z-score
GACGGACTGGGTCTCGGAACGTGCTAG: -0.0544 z-score
GACGATCTGGGGTATCGAGACGTGCTA: -0.438 z-score
TCACCTATAGGGCCTGACACTGTGCTA: -0.226 z-score
TTGGTTTTCCTTATTGCTTCGTGCTAG: 1.72 z-score
TTAGGTATCGAGTATCGGTTAGTGCTA: 1.37 z-score
CTACGCCTGCAGGTGAGCCGGTGCTAG: -0.445 z-score
TCATTTTCCTCTGTCATACTGTGCTAG: 2.79 z-score
CGATTACAGCTAGGTAGTGGGTGCTAG: 0.833 z-score
TCATGCTTTCTTTTTGCACTGTGCTAG: 1.05 z-score
CAGCACATGCATCTCCCACAGTGCTAG: -0.286 z-score
CCCTAGGGGCTCTCAGAGATGTGCTAG: -1.31 z-score
CCCTTATTCTAGCCTCCATTTGTGCTA: 1.23 z-score
GACGGACTGGGGACTGGGGGCGTGCTA: 0.735 z-score
GAAGATTTCGATTACAAAAAGTGCTAG: 2.69 z-score
GACGATTTCCTACTGCTGACGTGCTAG: 0.845 z-score

Study 8 — technique: protein-binding microarray; form: double-stranded DNA, one strand shown; sample: in vitro; concentration: not given; reading: higher = stronger binding; quantity: E-score
Target: Protein max, full length (MAX, Homo sapiens, UniProt P61244-2, residues 1-151)
Setting: k-mer, scored over probes, only values ≥0.25
ATGGGGCA: 0.262
CAACCATG: 0.376
CGCTCCAC: 0.26
ACGGCATG: 0.401
ATGGCCGC: 0.266
ACCACGCA: 0.346
CCTTGTGA: 0.265
AAAACGTG: 0.451
AGTGTGAC: 0.3
ACGCGTGC: 0.446
ATGGCATG: 0.34
CATGTTCA: 0.34
TGCCCGCA: 0.281

Excerpt of the above (study 3):
CCACTCAA: -0.256
AGAGAAAT: -0.00451
AGTACATA: -0.083
CCAGCAAG: -0.196
AAGTACGG: 0.279
ACCGCGTC: 0.385
ATTGAGCG: 0.0225
GAACGGCC: 0.236
CAGGTTGA: -0.0535
CAGGCAGG: -0.28
ATATCAGA: -0.0971
CCGTCAGA: 0.2
CGGGGAAC: 0.177
ATACGCAT: 0.0956
AATTAGGT: -0.118
GTAACTCA: -0.123
CAACCACC: -0.141
CGTTTACA: 0.0683
ACCGGTCG: 0.219
